# Measurements of several laboratories.
# Compare with care: the assays were run in different laboratories. “And” joins repeats or separate records; there may be more than shown. Numbers after ± are the reported error.
Structure (SMILES),tested on,test,test system,conditions,how to read,endpoint,result
CC(C)C[C@H](NC(=O)[C@H](CC(=O)O)NC(=O)CNC(=O)[C@@H](N)CCCNC(=N)N)C(=O)N[C@@H](C)C(=O)N[C@H](C(=O)N[C@@H](CC(C)C)C(=O)N[C@@H](CCCNC(=N)N)C(=O)N[C@@H](CCC(N)=O)C(=O)N[C@@H](CC(C)C)C(=O)N[C@@H](C)C(=O)N[C@@H](CCC(N)=O)C(=O)N[C@@H](CCC(=O)O)C(=O)N[C@@H](CC(=O)O)C(=O)NCC(=O)N[C@H](C(=O)N[C@H](C(=O)NCC(=O)N[C@H](C(=O)N[C@@H](CCCNC(=N)N)C(=O)NCCOCCOCCOCCOCCOCCOCCOCCOCCOCCOCCOCCOCCC(=O)N[C@@H](CS)C(N)=O)C(C)C)C(C)C)C(C)C)[C@@H](C)O,H358 lung adenocarcinoma,"cell binding, phage binding, refers to: output/input phage",,"10 min, 37 °C",baseline: control phage,selectivity ratio,130 ± 19
O=C1NC2(CC2)COc2ncc(F)cc2[C@H]2COCCN2c2ccn3ncc1c3n2,,,"Sprague-Dawley rat, male","oral, 2.5 mg/kg/day, end of treatment, 4-week repeated-dose toxicity",,body weight,440 ± 33.5 g
COc1ccc(NC(=O)c2ccc3[nH]c(-c4ccc(N(C)C)cc4)nc3c2)cn1,HCT116,IncuCyte,,"concentration not given, 16 (unit not given)",,PI-positive cells,85.5 count and 36.2 count and 58.5 count
CC(C)[C@H](NC(=O)[C@H](CCCNC(=N)N)NC(=O)[C@@H]1CCCN1C(=O)[C@@H](NC(=O)[C@H](C)NC(=O)[C@H](Cc1ccc(O)cc1)NC(=O)[C@H](CCC(N)=O)NC(=O)[C@H](CCCCN)NC(=O)[C@H](CCCNC(=N)N)NC(=O)[C@@H]1CCCN1C(=O)[C@H](CCC(=O)O)NC(=O)[C@@H](NC(=O)[C@H](C)N)[C@@H](C)O)[C@@H](C)O)C(=O)N[C@@H](Cc1ccccc1)C(=O)N[C@@H](Cc1c[nH]c2ccccc12)C(=O)N[C@H](C(=O)N[C@@H](CC(=O)O)C(=O)N[C@@H](C)C(=O)N1CCC[C@H]1C(=O)NCC(=O)NCCOCCOCCOCCOCCOCCOCCOCCOCCOCCOCCOCCOCCC(=O)N[C@@H](CS)C(N)=O)[C@@H](C)O,H2073 lung adenocarcinoma,"cell binding, phage binding, refers to: output/input phage",,"10 min, 37 °C",baseline: control phage,selectivity ratio,60 ± 20
Cc1cc(Oc2nc(N3CC[C@@H](c4ccncc4)C3)ncc2F)[nH]n1,MDA-MB-435,cell proliferation,skin cancer,,,IC50,44.7 µM
COc1ccccc1-c1ccncc1C(=O)Nc1nnc(OCc2ccc(Cl)cc2)s1,RPE-1 BRCA1 WT parental,,,"1 µM, run 1",baseline: untreated,colony survival,83.3%
CC(C)C12OC1C1OC13C1(C)CCC4=C(COC4=O)C1CC1OC13C2OC(=O)CCCOC1OC(CO)C(O)C(O)C1O (stereo not shown),primary airway epithelial cells,"cell viability, XTT",,47 h,,IC50,7.13 µM
C#CCN1C(=O)C(CC#C)(C(=O)OCC)Oc2ccccc21 (stereo not shown),HaCaT,"cell growth or viability, CCK-8",,"6.25 µM, 72 h",,inhibition,0.52%
O=C(O)c1ccc(-c2nc(-c3ccccc3Cl)c3sccn23)cc1,HEL,"flow cytometry, refers to: surface CD41",,0.01 mM,higher = more expression,mean fluorescence intensity,32600 a.u.
CC(=O)NCSC[C@H](NC(=O)[C@@H]1CCCN1C(=O)[C@H](C)NC(=O)[C@@H](NC(=O)CNC(=O)[C@@H](NC(=O)[C@H](Cc1c[nH]c2ccccc12)NC(=O)[C@H](C)NC(=O)CNC(=O)[C@H](CO)NC(=O)[C@H](C)NC(=O)[C@@H]1CCCN1C(=O)[C@H](Cc1c[nH]c2ccccc12)NC(=O)[C@H](C)NC(=O)[C@H](C)NC(=O)[C@@H](N)Cc1ccc(O)cc1)[C@@H](C)O)[C@@H](C)O)C(=O)N[C@@H](CO)C(=O)N[C@@H](C)C(=O)NCC(=O)N[C@H](C(=O)NCCOCCOCCOCCOCCOCCOCCOCCOCCOCCOCCOCCOCCC(=O)N[C@@H](CS)C(N)=O)[C@@H](C)O,Calu-1 lung mucoepidermoid carcinoma,"cell binding, phage binding, refers to: output/input phage",,"10 min, 37 °C",baseline: control phage,selectivity ratio,92 ± 19
CC(C)(C)C(=O)OCOP(=O)(OCOC(=O)C(C)(C)C)C1CCCN(O)C1=O (stereo not shown),MDA-MB-435,,,,,TGI,22.5 µM
CC1OC2OC3C4=C(OC3(C)C12O)C(=O)c1c(O)cccc1C4=O (stereo not shown),SiHa,sulforhodamine B,,"10 µg/mL, 48 h",negative means cell kill,growth percent,-31.2%
C=CCN1C(=O)C(CC=C)(C(=O)OCC)Oc2cc(F)ccc21 (stereo not shown),L02,"cell growth or viability, CCK-8",,"100 µM, 72 h",,inhibition,3.66%
CNC(=S)N/N=C/c1ccc(OCc2ccccc2)cc1,IMR-32,,,"200 µg/mL, 24 h",higher = more activity,catalase activity (OD450),0.036 a.u.
CSCC[C@H](NC(=O)[C@@H](NC(=O)[C@H](CCC(N)=O)NC(=O)[C@H](CO)NC(=O)[C@@H](N)C(C)C)[C@@H](C)O)C(=O)N[C@@H](CCCNC(=N)N)C(=O)N[C@@H](CCC(N)=O)C(=O)N[C@H](C(=O)N[C@@H](C)C(=O)N[C@H](C(=O)N1CCC[C@H]1C(=O)N[C@@H](CC(C)C)C(=O)N[C@@H](CC(C)C)C(=O)N[C@@H](Cc1c[nH]c2ccccc12)C(=O)N[C@@H](Cc1ccccc1)C(=O)N[C@@H](Cc1c[nH]c2ccccc12)C(=O)N[C@H](C(=O)NCC(=O)N[C@@H](CO)C(=O)N[C@@H](CC(C)C)C(=O)NCCOCCOCCOCCOCCOCCOCCOCCOCCOCCOCCOCCOCCC(=O)N[C@@H](CS)C(N)=O)[C@@H](C)O)C(C)C)[C@@H](C)O,H358 lung adenocarcinoma,"cell binding, phage binding, refers to: output/input phage",,"10 min, 37 °C",baseline: control phage,selectivity ratio,29 ± 6.6
CCOC(=O)C1(Cc2ccccc2)Oc2cc(F)ccc2N(Cc2ccccc2)C1=O (stereo not shown),L02,"cell growth or viability, CCK-8",,"0.78 µM, 72 h",,inhibition,0.46%

# Some of these lines once more:
Structure (SMILES),tested on,test,test system,conditions,how to read,endpoint,result
O=C(O)c1ccc(-c2nc(-c3ccccc3Cl)c3sccn23)cc1,HEL,"flow cytometry, refers to: surface CD41",,0.01 mM,higher = more expression,mean fluorescence intensity,32600 a.u.
CNC(=S)N/N=C/c1ccc(OCc2ccccc2)cc1,IMR-32,,,"200 µg/mL, 24 h",higher = more activity,catalase activity (OD450),0.036 a.u.
